Results from different studies.
Compare with care: the assays were run in different laboratories. Numbers after ± are the reported error.

Compound | test | test system | conditions | how to read | endpoint | result
CNC(=O)c1c(C)oc2cc(Oc3ncnc4cc(OC)c(OC)cc34)ccc12 | population PK base model | human | oral | – | absorption rate constant ka | 2.29 h⁻¹
CN(CCC(=O)O)C(=O)c1ccc2c(c1)CC[C@@H]1[C@@H]2CC[C@]2(C)C(c3cncc(F)c3)=CC[C@@H]12 | – | premenopausal women with endometriosis pain, serum | 60 mg twice daily, end of treatment, completers, mean | – | direct bilirubin | 0.345 mg/dL
C=CC(=O)N(C)CCOc1c(N)ncnc1-c1cc(F)cc(NC(=O)c2ccc(C3CC3)cc2F)c1C | – | human, whole blood | oral, 10 mg once daily, day 1 | – | AUC | 4.94 ng·h/mL
CCn1c(=O)c(-c2cc(NC(=O)Nc3ccccc3)c(F)cc2Br)cc2cnc(NC)cc21 | refers to: amylase increased | healthy human, matched to moderate hepatic impairment | oral, 50 mg single dose | – | participants with grade ≥ 3 TEAE | 0%
Cc1ccc([C@H]2N[C@@H](c3ccc(-c4ccccn4)cc3)CO[C@@H]2C)cc1 | shake-flask, 1-octanol/buffer | – | pH 7.4 | – | logD | > 4.7
CCO[C@H]1CCN(Cc2c(OC)cc(C)c3[nH]ccc23)[C@H](c2ccc(C(=O)O)cc2)C1 | – | human severe hepatic impairment, plasma | oral, 200 mg single dose, median | – | unbound Cmax | 1460 ng/mL
CC1(CNC(=O)c2ccc(-c3ccccc3)cc2)NC(=O)NC1=O (centres unmarked) | – | octanol/buffer | pH 7.4 | – | logD | 2.36
O=C(Nc1nc2cccc(-c3ccc(CN4CCS(=O)(=O)CC4)cc3)n2n1)C1CC1 | refers to: hypertension | human rheumatoid arthritis patients | oral, 75 mg once daily, 4 weeks, regardless of relatedness | – | treatment-emergent adverse events | 0%
O=C(O)CC(O)(CC(=O)O)C(=O)O | – | Wistar rat | 1000 mg/kg, week four | – | lowest mean body weight | 109 g
CC(C)n1c(Nc2cccnc2)nc2cnc(Nc3ccc(N4CCN(C)CC4)cc3)nc21 | refers to: eosinophil count increased | healthy human, male | oral, dose not given, CTCAE grade 1-3 | – | subjects with TEAE | 2.4%
O=C(O)CCN1C(=O)CSC1=S | – | excised Bama miniature pig skin | 10 mM, 24 h, Franz cell, 30% ethanol saline | – | cumulative permeation | 29.9 ± 1.49%
CO[C@@H]1[C@H](OC(=O)N2CC(CCN3CCOCC3)C2)CC[C@]2(CO2)[C@H]1[C@@]1(C)O[C@@H]1CC=C(C)C | – | human | dose not given, day 28, multiple ascending dose | relative to: baseline | diastolic blood pressure change | -1.7 ± 6.5 mmHg
NCCONC(=O)[C@@H]1CC[C@@H]2CN1C(=O)N2OS(=O)(=O)O | refers to: urinary leukocytes positive | healthy Chinese men | intravenous, 1 g, treatment-emergent | – | adverse event incidence | 12.5%
CN(CCC#N)C1CCN(C(=O)Cn2cc(NC(=O)c3cnn4cccnc34)c(-c3cc(Cl)ccc3OC(F)F)n2)CC1 | – | human, single ascending dose | 0.5 mg, day 4 | relative to: baseline | LDL cholesterol change | 6.5 mg/dL
C/C=C/C[C@@H](C)C(=O)[C@H]1C(=O)N[C@@H](C(C)C)C(=O)N(C)CC(=O)N(C)[C@@H](CC(C)C)C(=O)N[C@@H](C(C)C)C(=O)N(C)[C@@H](CC(C)C)C(=O)N[C@@H](C)C(=O)N[C@H](C)C(=O)N(C)[C@@H](CC(C)C)C(=O)N(C)[C@@H](CC(C)C)C(=O)N(C)[C@@H](C(C)C)C(=O)N1C | – | Sprague Dawley rat, plasma | intravenous infusion, 0.29 mg/h/kg, 4 h, 4.5 h constant infusion | – | free plasma concentration | 71.1 ng/mL
c1cc(-c2ccc3ncnc(NC4CCOCC4)c3c2)cc(N2CCOCC2)c1 | – | human liver microsomes | – | – | CLint | 84 µL/min/mg
C[C@H]1CNCCCN1S(=O)(=O)c1cccc2cncc(F)c12 | – | healthy adult men | ocular, 1 drop per eye twice daily, 8 days, adverse event | – | subjects with pityriasis rosea | 0%
C[C@@H](O)CCOC(=O)C[C@@H](C)O | – | human | oral drink, 60 min post dose, mean | – | diastolic blood pressure | 66 mmHg
Cc1cc(Nc2cc3ncccc3c(N[C@@H]3C[C@H]4CC[C@@H](C3)N4CCC#N)n2)n[nH]1 | – | healthy human subjects | oral, 300 mg, 2 weeks, single ascending dose | – | skin subcutaneous disorders incidence | 17%
CC(C)(C(=O)N1CCOc2c(C#N)cncc2C1)C(F)F | refers to: haematochezia | human, both sexes | oral, 20 mg twice daily, 14 days, multiple ascending dose | – | subjects with TEAE | 0%
O=C(Cn1cnc([N+](=O)[O-])n1)Nc1ccc(N2CCOCC2)c(Cl)c1 | – | octanol/buffer | pH 7.4 | – | logD | 2.08
CC[C@@H]([C@H](C)O)n1ncn(-c2ccc(N3CCN(c4ccc(OC[C@@H]5CO[C@@](Cn6cncn6)(c6ccc(F)cc6F)C5)cc4)CC3)cc2)c1=O | – | rat plasma | 2 ng/mL, 3 h, room temperature | relative to: nominal concentration | stability relative error | -7.4%

Compound | test | test system | conditions | how to read | endpoint | result
COC(=O)c1ccc([C@@H]2COC(C)(C)[C@@H](c3ccc(Cl)c(Cl)c3)N2)cc1 | shake-flask, 1-octanol/buffer | – | pH 7.4 | – | logD | > 4.7
O=C(O)CCCOc1ccc([18F])cc1-c1cc(-c2ccccc2C(F)(F)F)n(-c2ccccc2)n1 | gamma counting | male ddY mice, spleen | intravenous, 2.1 MBq, 1 min | – | radioactivity uptake | 0.22 ± 0.04 SUV
NC1(C(=O)N[C@@H](CCO)c2ccc(Cl)cc2)CCN(c2nc[nH]c3nccc2-3)CC1 | LC-MS/MS, non-compartmental | human patients, plasma | 160/400 mg cohort, cycle 0, geometric mean, together with: enzalutamide | – | Tmax | 1.7 h
Cl.[2H]C([2H])([2H])CC(=O)c1cnc(NC(=O)C2CC2)cc1Nc1cccc(-c2ncn(C([2H])([2H])[2H])n2)c1OC | median | human | oral, 20 mg twice daily, day 1, fasted, tablet, multiple dose | – | Tmax | 2.01 h
C[C@H](N[C@@H](CCc1ccccc1)C(=O)O)C(=O)N1[C@H](C(=O)O)C[C@H]2CCCC[C@@H]21 | – | human plasma | 300 pg/mL, 3 cycles at -20 °C | relative to: nominal | freeze-thaw stability | 97.6 ± 7.6%
O=C(O)CCC(=O)O.[2H]C([2H])([2H])Oc1cc(C)c2[nH]ccc2c1CN1CC[C@@H](C2CC2)C[C@H]1c1ccc(C(=O)O)cc1 | – | healthy Chinese subjects | 600 mg, single ascending dose | – | subjects with any TEAE | 16.7%
NC(=O)N1c2ccccc2C=Cc2ccccc21 | refers to: musculoskeletal disorders (SOC) | human male | oral, dose not given, AEs, treatment-related, on drug, CTCAE | – | adverse events incidence | 13%
CCc1cc(C(=O)NC)c2nccc(N3CCc4c(cc(Cn5ccnc5)cc4-c4cn(C)nc4C(F)(F)F)C3=O)c2c1 | – | Sprague Dawley rats | oral, 100 mg/kg twice daily, 7 days | – | reticulocytes | 3.53 ± 0.57%
C[C@@H](c1ncncc1F)[C@](O)(Cn1cncn1)c1ccc(F)cc1F | – | human | oral, 400 mg, drug interaction trial | – | grade 1 TEAE | 36.4%
COC(=O)c1cccc(-c2cccc(Nc3nccc(NC4CCCCC4)n3)c2)c1 | – | MDCKII-WT cells | 10 µM, pH 7.4 | relative to: Papp B-A over A-B | efflux ratio | 8.3
N#Cc1ccc2c(c1)[C@H]1CCCN(C(=O)c3ccc4[nH]cnc4c3)[C@H]1C2 | – | human | 360 mg, day 15 | – | minimum ACTH level | 5.1 pmol/L
OCc1nc2ccc(NCc3ccc(C(F)(F)F)cc3)cc2[nH]1 | – | Balb/c mouse, male, kidney | oral, 10 mg/kg, 48 h | – | tissue concentration | 1.5 ± 0.3 ng/g
C=CCn1c(=O)c2cnc(Nc3ccc(N4CCN(C)CC4)cc3)nc2n1-c1ccc2c(n1)[C@@](O)(CC)CC2 | – | female NOD/SCID mouse OVCAR-3 xenograft, plasma | oral, 100 mg/kg once daily, :2 | – | AUC(0-24) | 44000 ng·h/mL
C[C@@H]1CCC[C@H](n2cnc(-c3cc(Cl)ccc3-n3cc(Cl)nn3)cc2=O)c2cc(ccn2)-c2c(cnn2C(F)F)NC1=O | – | rabbit | oral, 20 mg/kg | relative to: 0.8 mg/kg intravenous | oral bioavailability | 14%
CO[C@@H]1[C@H](O)[C@@H](CO)O[C@H]1n1c([N+](=O)[O-])nc2c(=O)[nH]c(N)nc21 | depurination, RP-HPLC | citrate-phosphate buffer 0.5 mM | 77 min, pH 2, 37 °C | – | nucleoside remaining fraction | 0.931
CC(C)c1c(C(=O)Nc2ccccc2O)c(-c2ccccc2)c(-c2ccc(F)cc2)n1CC[C@@H]1C[C@@H](O)CC(=O)O1 | reverse phase LC, C18 | acetonitrile gradient, 0.1% formic acid | converted from retention time | relative to: Valko CHI standards | chromatographic hydrophobicity index | 103
COC(=O)c1ccc(NC(=O)CSc2nnc(-c3ccc(NC(C)=O)cc3)n2C)cc1 | – | octanol/buffer | pH 7.4 | – | logD | 2.33
Cc1cc(-c2nccc3c2ccn3CC(=O)Nc2ccc(-c3cnccn3)cn2)ccn1 | – | healthy human volunteers | oral, 20 mg once daily, 14 days, multiple ascending dose | – | skin disorder TEAEs | 0%
CCn1cc(C(=O)N2CCOCC2)c(=O)c2cc(NC3Cc4ccccc4C3)cnc21 | – | humans, fasted, plasma | oral, 300 mg, single dose, suspension | – | AUC(0-inf) | 3920 ng·h/mL
CN(C)C/C=C/C(=O)Nc1cc2c(Nc3ccc(F)c(Cl)c3)ncnc2cc1O[C@H]1CCOC1 | – | PBS | 100 µM, 23 h, pH 8, 37 °C, together with: cysteine 10 mM | – | cysteine adduct formation | 95%
CC(C)(C)c1ccc([C@H]2COC[C@H](c3ccc(F)cc3)N2)cc1 | shake-flask, 1-octanol/buffer | – | pH 7.4 | – | logD | > 4.7
CCOc1c([C@H](C)n2nc(C)c3c(N)ncnc32)cc(Cl)c(F)c1[C@@H]1CNC(=O)C1 | – | patients, monotherapy | oral, 45 mg once daily, cycle 1 day 1 | – | Cmax | 4.01 ± 1.4 µM

Repeated from above:
Compound | test | test system | conditions | how to read | endpoint | result
CO[C@@H]1[C@H](O)[C@@H](CO)O[C@H]1n1c([N+](=O)[O-])nc2c(=O)[nH]c(N)nc21 | depurination, RP-HPLC | citrate-phosphate buffer 0.5 mM | 77 min, pH 2, 37 °C | – | nucleoside remaining fraction | 0.931
CNC(=O)c1c(C)oc2cc(Oc3ncnc4cc(OC)c(OC)cc34)ccc12 | population PK base model | human | oral | – | absorption rate constant ka | 2.29 h⁻¹
CCOc1c([C@H](C)n2nc(C)c3c(N)ncnc32)cc(Cl)c(F)c1[C@@H]1CNC(=O)C1 | – | patients, monotherapy | oral, 45 mg once daily, cycle 1 day 1 | – | Cmax | 4.01 ± 1.4 µM
